Measurements of several laboratories.
Numbered parts are unrelated; each lists some results of a single study. Values joined by “and” are separate records of one study, mostly repeats; a detail may differ.

Study 1
Cell line: sample D normal colon organoid
Technique: CellTiter-Glo
Tested at: 1 µM
Setting: mean of replicates
Reference: DMSO
SMILES | viability [%]
CC(=O)C1=C(C)N(c2cccc(C(F)(F)F)c2)C(=O)N[C@H]1c1ccc(C#N)nc1 | 102
O=C(N1CCS(=O)(=O)CC1)N1C[C@H](c2ccc(OC(F)(F)F)cc2)C[C@H](c2nc(C3CC3)no2)C1 | 134
C[C@H](NC(=O)c1cnc2n1[C@](C)(Cc1ccc(C#N)cc1)C(=O)N2c1cc(Cl)c(F)c(Cl)c1)C(=O)NC1(c2ccccn2)CC1 | 98.6
O=C(Nc1cnc(Oc2ccc(F)cc2)nc1)N1CCc2ncccc2[C@@H]1c1ccc(F)cc1 | 139
CCNC(=O)c1cc2c(N3CCOC[C@@H]3C)ccnc2[nH]1 | 111

Study 2
Target: Beta-1 adrenergic receptor (ADRB1, Homo sapiens, UniProt P08588)
UniProt P08588, sequence (whole entry, looked up): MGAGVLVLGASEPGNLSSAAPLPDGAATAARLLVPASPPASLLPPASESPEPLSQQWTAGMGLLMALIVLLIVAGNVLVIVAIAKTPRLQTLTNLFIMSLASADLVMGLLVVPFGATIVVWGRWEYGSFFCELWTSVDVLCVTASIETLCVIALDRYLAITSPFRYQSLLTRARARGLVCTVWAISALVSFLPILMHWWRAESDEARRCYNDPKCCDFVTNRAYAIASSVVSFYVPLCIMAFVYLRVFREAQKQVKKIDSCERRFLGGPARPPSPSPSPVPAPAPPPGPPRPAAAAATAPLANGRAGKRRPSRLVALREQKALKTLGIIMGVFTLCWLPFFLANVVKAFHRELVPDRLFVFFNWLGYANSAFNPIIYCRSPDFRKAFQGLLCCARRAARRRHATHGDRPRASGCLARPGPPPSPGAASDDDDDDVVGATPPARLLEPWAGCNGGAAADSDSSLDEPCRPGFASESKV
Mode: agonist
Structure (SMILES) | EC50 [µM]
Cc1noc2c(-c3ccsc3)cc(-c3cccnc3)nc12 | ≥ 100
Cn1nccc1-c1ncc2c(n1)OCCN(c1cccc(C(F)(F)F)c1)C2=O | ≥ 100
COc1ccccc1N1CCN([S+](=O)([O-])c2ccc(Cl)c(C)c2)CC1 | ≥ 100

Study 3
Target: Ribosomal protein S6 kinase alpha-5 (RPS6KA5, Homo sapiens, UniProt O75582)
UniProt O75582, sequence (whole entry, looked up): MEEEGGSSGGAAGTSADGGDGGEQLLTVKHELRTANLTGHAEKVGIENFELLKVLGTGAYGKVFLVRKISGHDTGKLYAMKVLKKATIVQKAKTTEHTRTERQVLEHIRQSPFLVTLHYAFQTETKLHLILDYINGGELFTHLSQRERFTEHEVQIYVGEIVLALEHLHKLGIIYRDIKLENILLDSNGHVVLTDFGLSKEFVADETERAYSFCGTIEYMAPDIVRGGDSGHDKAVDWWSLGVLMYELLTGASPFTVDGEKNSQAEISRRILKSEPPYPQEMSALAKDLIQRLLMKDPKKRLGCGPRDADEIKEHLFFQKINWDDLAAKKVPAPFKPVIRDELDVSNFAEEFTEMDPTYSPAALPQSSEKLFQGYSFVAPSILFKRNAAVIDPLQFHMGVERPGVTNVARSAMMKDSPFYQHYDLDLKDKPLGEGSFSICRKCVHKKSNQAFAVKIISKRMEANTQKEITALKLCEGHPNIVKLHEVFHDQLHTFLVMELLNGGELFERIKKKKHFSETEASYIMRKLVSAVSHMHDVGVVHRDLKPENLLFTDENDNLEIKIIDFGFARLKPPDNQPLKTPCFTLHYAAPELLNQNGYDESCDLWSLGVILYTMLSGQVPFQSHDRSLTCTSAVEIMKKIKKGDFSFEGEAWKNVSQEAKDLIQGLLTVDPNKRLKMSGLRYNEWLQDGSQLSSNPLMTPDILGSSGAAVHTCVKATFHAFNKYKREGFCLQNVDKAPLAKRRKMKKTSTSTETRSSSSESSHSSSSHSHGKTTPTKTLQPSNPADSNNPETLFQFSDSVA
Observed: enzyme activity
Mode: inhibitor
Tested at: 0.5 µM
Reference: control
SMILES | remaining activity [%]
Cc1ccc(NC(=O)c2ccc(CN3CCN(C)CC3)cc2)cc1Nc1nc(-c2cccnc2)cs1 | 103
Cc1cccc(-c2[nH]c(C(C)(C)C)nc2-c2ccc3c(c2)OCO3)n1 | 97.5
CN(C)c1ccc(C=C2C(=O)Nc3ccccc32)cc1 | 98.7
N#CC(C#N)=C(N)/C(C#N)=C/c1ccc(O)cc1 | 96.7
OCC(O)CCON=C1C(c2c(O)[nH]c3ccccc23)=Nc2ccccc21 (stereo not shown) | 37.5
COc1ccc(CNC(=O)Nc2ncc([N+](=O)[O-])s2)cc1 | 99.5
CC(C)[C@H](CO)Nc1nc(Nc2cc(N)cc(Cl)c2)c2ncn(C(C)C)c2n1 | 103
O=S(=O)(c1cccc2cnccc12)N1CCCNCC1 | 62.1
COc1cc2nccc(Oc3ccc(NC(=S)NC(=O)c4ccccc4C)cc3)c2cc1OC | 95.3
O=C(Nc1cccc(Nc2cc(Nc3cccc(C(F)(F)F)c3)ncn2)c1)C1CC1 | 103
CCOC(=O)c1c(C)[nH]c(/C=C2\C(=O)Nc3ccccc32)c1C | 91.8

Single results of other studies
Compound | cell line | assay | conditions | endpoint | value
O=C(O)CCCNC(=O)c1cccnc1 | HaCaT | – | 100 µM, 60 h | viability | 147%
CC(C)C[C@@H]1NC(=O)[C@@H](N(C)C(=O)[C@H](CC2CCC2)NC(=O)[C@@H]2C[C@@H](F)CN2C(=O)C2(C(F)(F)F)CC(F)(F)C2)CCCCNC(=O)C2(CC2)NC(=O)[C@H](Cc2cc(Cl)ccc2Cl)N(C)C1=O | human CD34+ HSPC | EdU flow cytometry | 300 nM, 24 h | G2-M phase cells | 5.71% and 3.56%
CCCc1nc(C(C)(C)O)c(C(=O)OCc2oc(=O)oc2C)n1Cc1ccc(-c2ccccc2-c2nnn[nH]2)cc1 | HaCaT | – | 100 µM, 60 h | viability | 141%

For quick reference, copied from above (study 1):
SMILES | viability [%]
CCNC(=O)c1cc2c(N3CCOC[C@@H]3C)ccnc2[nH]1 | 111
O=C(Nc1cnc(Oc2ccc(F)cc2)nc1)N1CCc2ncccc2[C@@H]1c1ccc(F)cc1 | 139
